Published values of several laboratories.
Numbered parts are unrelated; each lists some results of a single study. Positions count from the first letter of the parent shown.
Sequence of UniProt Q8NG66 (whole entry, looked up): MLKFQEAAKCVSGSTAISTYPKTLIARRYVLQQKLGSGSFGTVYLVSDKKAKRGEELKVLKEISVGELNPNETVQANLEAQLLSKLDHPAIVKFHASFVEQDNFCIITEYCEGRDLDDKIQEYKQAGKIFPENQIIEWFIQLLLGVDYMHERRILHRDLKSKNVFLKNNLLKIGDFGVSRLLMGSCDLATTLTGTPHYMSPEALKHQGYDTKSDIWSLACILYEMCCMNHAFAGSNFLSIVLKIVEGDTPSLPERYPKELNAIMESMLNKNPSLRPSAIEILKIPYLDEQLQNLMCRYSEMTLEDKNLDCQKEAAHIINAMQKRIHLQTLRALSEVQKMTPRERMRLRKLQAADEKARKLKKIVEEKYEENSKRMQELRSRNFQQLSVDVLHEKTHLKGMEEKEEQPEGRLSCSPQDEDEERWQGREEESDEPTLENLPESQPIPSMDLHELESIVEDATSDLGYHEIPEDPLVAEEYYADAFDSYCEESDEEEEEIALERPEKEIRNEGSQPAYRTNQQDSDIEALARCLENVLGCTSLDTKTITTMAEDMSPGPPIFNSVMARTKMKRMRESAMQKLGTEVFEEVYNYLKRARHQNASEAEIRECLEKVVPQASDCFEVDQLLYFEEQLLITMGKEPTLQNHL

Series 1 — technique: universal PBM; form: double-stranded DNA, one strand shown; sample: in vitro; concentration: not given; reading: higher = stronger binding
Target: Sal-like protein 4, full length isoform B (SALL4, Homo sapiens, UniProt Q9UJQ4-2, residues 1-616)
Notes: 8-mer, flanks averaged, mean of replicates
Residues (chain): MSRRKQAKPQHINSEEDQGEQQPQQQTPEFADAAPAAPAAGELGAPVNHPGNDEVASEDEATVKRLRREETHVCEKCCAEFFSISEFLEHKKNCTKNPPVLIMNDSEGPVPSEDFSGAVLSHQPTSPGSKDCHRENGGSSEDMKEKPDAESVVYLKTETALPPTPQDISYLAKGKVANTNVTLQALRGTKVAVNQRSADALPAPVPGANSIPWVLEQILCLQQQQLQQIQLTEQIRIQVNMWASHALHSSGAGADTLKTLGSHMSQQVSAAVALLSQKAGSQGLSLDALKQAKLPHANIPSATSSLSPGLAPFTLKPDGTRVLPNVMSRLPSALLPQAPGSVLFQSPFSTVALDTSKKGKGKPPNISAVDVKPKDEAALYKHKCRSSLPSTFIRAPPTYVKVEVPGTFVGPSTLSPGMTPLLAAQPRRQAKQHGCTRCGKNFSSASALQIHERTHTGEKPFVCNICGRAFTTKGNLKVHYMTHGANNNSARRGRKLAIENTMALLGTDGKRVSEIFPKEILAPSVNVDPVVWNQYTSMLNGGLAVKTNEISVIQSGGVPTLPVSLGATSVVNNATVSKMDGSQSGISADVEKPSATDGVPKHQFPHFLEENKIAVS
`CTGCTCTA` gave an E-score of 0.114.
With `GAAGGACA` the E-score was 0.0706.
`CGCGAGAG` gave an E-score of -0.268.
For `AAGTCACT`, the E-score was 0.178.
With `CTTCAAAG` the E-score was 0.208.
For `GCAGCAGC`, the E-score was -0.204.
`CGGTAAAC` gave an E-score of -0.00388.
`GTAAATCA` has an E-score of 0.243.

Series 2 — target: CCNB1, cyclin fold, Cln2 fusion (human); technique: yeast growth competition, sequencing; sample: yeast; notes: weak parent motif; relative to: not given; reading: higher = stronger binding
Parent: RBL1 docking peptide (human); GSAKRRLFGEDPP
`G9L`: “normalised enrichment score” 1.64.
`F8D` — result for “normalised enrichment score”: 0.198.
For `G1S`, “normalised enrichment score” read 0.915.
`G9W`: “normalised enrichment score” 1.02.
For `G1D`, “normalised enrichment score” read 0.634.
Under “normalised enrichment score”, `L7S` is recorded as 0.365.
Under “normalised enrichment score”, `P12Q` is recorded as 0.203.
`E10D` — result for “normalised enrichment score”: 0.848.

Series 3 — technique: protein-binding microarray; form: hairpin DNA; sample: in vitro; concentration: not given; relative to: not given; reading: higher = stronger binding; constant ends, left off below: GAGGCCAT … ATGGCCTCACACTC
Target: FOXO3, forkhead domain (mouse, UniProt Q9WVH4, residues 31-263)
Sequence of UniProt Q9WVH4 (31-263, looked up): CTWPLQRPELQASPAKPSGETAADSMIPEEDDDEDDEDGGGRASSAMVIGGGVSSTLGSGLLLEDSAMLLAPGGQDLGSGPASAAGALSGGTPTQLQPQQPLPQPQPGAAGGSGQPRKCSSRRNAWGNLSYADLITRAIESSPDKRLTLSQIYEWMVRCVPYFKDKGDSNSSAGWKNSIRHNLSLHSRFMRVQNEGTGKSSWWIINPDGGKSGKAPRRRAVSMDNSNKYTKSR
Notes: whole hairpin DNA, median over replicate spots
The median fluorescence of `GTGAACAACGCCTCCTGGCGTTGTTCAC` is reported as 4110 a.u.
The median fluorescence of `TCAAACAACGCCTCCTGGCGTTGTTTGA` is reported as 3900 a.u.
For `GTCGACAACGCCTCCTGGCGTTGTCGAC (5mC at 33)`, the median fluorescence was 4550 a.u.
With `GTAAACAACGCCTCCTGGCGTTGTTTAC (5mC at 17)` the median fluorescence was 5720 a.u.
The median fluorescence of `GTAAACAACGCCTCCTGGCGTTGTTTAC (5mC at 36)` is reported as 5040 a.u.
The median fluorescence of `GTAACCTACGCCTCCTGGCGTAGGTTAC` is reported as 3800 a.u.
With `GAAAACAACGCCTCCTGGCGTTGTTTTC` the median fluorescence was 4710 a.u.
`GCAAACCGCGCCTCCTGGCGCGGTTTGC` has a median fluorescence of 4930 a.u.

Mixed results
`C[C@H](NC(=O)c1cnc2n1[C@](C)(Cc1ccc(C#N)cc1)C(=O)N2c1cc(Cl)c(F)c(Cl)c1)C(=O)NC1(c2ccccn2)CC1` gave a remaining binding of 100% (Serine/threonine-protein kinase Nek11 (NEK11, Homo sapiens, UniProt Q8NG66); cell-free assay, competition with immobilised ligand; 1 µM).

Repeated from above (series 1):
For `AAGTCACT`, the E-score was 0.178.
With `CTTCAAAG` the E-score was 0.208.
For `GCAGCAGC`, the E-score was -0.204.
